# Measurements collected from several papers.
# Compare with care: the assays were run in different laboratories.
# MARK3: MAP/microtubule affinity-regulating kinase 3 (MARK3, Homo sapiens, UniProt P27448)
# UniProt P27448, sequence (whole entry, looked up): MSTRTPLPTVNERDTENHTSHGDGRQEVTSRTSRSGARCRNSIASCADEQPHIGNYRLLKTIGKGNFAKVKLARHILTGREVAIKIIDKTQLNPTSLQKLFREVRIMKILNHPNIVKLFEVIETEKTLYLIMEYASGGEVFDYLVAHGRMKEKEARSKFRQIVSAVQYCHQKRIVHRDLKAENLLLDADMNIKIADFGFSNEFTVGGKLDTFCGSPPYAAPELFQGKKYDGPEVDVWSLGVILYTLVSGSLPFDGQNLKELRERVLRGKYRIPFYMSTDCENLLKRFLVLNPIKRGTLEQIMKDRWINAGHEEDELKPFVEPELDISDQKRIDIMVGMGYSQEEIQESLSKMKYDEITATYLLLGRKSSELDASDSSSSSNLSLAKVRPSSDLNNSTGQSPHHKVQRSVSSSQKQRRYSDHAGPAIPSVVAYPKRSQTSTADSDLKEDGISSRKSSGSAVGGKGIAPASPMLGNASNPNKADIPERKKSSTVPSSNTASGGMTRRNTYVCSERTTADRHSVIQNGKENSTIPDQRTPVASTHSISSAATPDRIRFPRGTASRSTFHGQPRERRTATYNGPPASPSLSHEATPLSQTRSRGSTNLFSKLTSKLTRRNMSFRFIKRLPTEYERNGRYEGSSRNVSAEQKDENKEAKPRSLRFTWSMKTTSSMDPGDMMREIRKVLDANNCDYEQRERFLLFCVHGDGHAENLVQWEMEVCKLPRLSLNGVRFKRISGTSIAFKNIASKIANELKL
# UniProt P49137, sequence (whole entry, looked up): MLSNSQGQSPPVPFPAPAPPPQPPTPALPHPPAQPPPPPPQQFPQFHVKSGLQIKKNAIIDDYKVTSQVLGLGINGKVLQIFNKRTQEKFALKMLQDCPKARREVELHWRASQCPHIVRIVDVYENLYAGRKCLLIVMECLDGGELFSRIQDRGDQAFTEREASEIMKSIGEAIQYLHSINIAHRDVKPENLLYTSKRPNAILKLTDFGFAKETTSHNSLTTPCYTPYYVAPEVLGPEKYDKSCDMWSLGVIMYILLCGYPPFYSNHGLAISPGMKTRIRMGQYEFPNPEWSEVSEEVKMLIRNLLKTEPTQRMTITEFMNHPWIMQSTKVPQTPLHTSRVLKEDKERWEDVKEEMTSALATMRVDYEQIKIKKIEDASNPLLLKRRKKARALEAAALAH
# UniProt O94804, sequence (whole entry, looked up): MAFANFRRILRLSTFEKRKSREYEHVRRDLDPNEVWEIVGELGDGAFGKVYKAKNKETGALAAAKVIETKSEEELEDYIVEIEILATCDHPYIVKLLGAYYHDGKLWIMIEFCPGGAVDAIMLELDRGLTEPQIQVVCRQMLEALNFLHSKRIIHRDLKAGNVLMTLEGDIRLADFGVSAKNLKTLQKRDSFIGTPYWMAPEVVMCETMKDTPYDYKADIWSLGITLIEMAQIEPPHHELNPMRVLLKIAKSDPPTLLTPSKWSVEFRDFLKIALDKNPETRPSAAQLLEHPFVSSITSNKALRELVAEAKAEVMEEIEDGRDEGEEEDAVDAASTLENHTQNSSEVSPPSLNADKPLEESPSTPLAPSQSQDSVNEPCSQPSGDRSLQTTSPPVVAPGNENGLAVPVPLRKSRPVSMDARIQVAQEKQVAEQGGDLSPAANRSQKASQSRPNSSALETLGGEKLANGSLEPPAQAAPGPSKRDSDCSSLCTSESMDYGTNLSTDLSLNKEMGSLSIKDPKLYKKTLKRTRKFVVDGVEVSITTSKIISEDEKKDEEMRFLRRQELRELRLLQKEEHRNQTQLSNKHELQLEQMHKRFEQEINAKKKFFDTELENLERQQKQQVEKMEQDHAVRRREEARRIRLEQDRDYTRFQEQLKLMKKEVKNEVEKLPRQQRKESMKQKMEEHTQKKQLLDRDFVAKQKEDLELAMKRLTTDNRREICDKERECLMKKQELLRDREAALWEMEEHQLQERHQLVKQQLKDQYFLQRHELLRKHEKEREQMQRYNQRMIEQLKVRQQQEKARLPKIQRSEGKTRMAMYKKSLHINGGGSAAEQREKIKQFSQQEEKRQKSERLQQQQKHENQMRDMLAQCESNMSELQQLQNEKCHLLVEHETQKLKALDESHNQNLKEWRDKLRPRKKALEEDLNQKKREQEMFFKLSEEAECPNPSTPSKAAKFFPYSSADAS
# UniProt P03372, sequence (whole entry, looked up): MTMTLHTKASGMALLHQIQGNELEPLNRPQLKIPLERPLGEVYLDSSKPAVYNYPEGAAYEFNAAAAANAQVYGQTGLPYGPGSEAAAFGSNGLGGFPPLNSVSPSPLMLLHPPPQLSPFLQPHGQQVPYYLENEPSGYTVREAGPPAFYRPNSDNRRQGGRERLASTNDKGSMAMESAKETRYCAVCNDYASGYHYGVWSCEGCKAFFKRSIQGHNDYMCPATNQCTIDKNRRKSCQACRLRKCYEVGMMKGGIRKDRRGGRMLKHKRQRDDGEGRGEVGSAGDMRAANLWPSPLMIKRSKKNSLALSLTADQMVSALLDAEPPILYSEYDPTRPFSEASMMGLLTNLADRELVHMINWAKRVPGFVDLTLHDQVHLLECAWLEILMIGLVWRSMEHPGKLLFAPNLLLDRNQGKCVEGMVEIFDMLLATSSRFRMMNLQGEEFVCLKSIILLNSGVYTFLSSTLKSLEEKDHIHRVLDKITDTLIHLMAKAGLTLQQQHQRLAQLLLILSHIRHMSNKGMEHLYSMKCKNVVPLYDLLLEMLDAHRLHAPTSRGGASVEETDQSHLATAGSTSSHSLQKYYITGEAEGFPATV
# UniProt Q99720, sequence (whole entry, looked up): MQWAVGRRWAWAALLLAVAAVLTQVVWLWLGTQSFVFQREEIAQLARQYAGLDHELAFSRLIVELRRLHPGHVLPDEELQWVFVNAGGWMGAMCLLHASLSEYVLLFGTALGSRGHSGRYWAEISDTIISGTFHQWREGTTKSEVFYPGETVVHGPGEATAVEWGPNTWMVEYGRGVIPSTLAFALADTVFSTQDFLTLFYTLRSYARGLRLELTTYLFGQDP
Structure (SMILES),target,assay,conditions,inhibition [%]
CC(C)[C@H]1NC(=O)C[C@H]2/C=C/CCSSC[C@@H](NC1=O)C(=O)N[C@H](Cc1cccc3ccccc13)C(=O)NCC(=O)O2,MARK3,"enzyme activity, inhibitor",10 µM,-3.4
O=C(NC1CCN(c2ncnc3[nH]cnc23)CC1)c1cccc(NS(=O)(=O)c2ccc(C(F)(F)F)cc2)c1,"Genome polyprotein, NS5 methyltransferase domain (Zika virus, UniProt Q32ZE1)","NS5 enzyme activity, inhibitor",3.125 µM,3.59
CS(C)(=O)=Nc1ccc(-c2ccc(-c3nc4cc(O[C@@H]5CO[C@H]6[C@@H]5OC[C@H]6O)[nH]c4cc3F)cc2)cc1,"WNK2 (Homo sapiens, UniProt Q9Y3S1)","enzyme activity, inhibitor",10 µM,26
CN(C)[C@H]1C[C@@]23CC[C@@]4(O2)C(=CC[C@]2(C)[C@@H](c5ccc6ccncc6c5)CC[C@H]24)C=C3[C@@H](O)[C@@H]1O,MARK3,"ATP probe labelling, inhibitor, KiNativ profiling",0.1 µM,0.7
O=C(CN1CN(c2ccccc2)C2(CCN(C(=O)c3cnc4[nH]ncc4c3)CC2)C1=O)NCC(F)(F)F,"STK10 (Homo sapiens, UniProt O94804)",inhibitor,concentration not given,< 50
CN[C@@H]1[C@H](O)[C@H](NC)[C@H]2O[C@]3(O)[C@H](O[C@@H]2[C@H]1O)O[C@H](C)C[C@H]3NC(=O)Cc1cc(Cl)ccn1,"SIGMAR1 (Homo sapiens, UniProt Q99720)","ligand displacement, radioligand",10 µM,2
C[C@H](NCc1ccc(-c2ccc(C(F)(F)F)cc2)cc1)C(N)=O,"MAPKAPK2 (Homo sapiens, UniProt P49137)","cell-free assay, competition with immobilised ligand",1 µM,21
COc1ccc(F)cc1S(=O)(=O)Nc1cnc2c(c1)C(=O)NCCO2,"Estrogen receptor (ESR1, Homo sapiens, UniProt P03372)","ligand displacement, radioligand",10 µM,8

# Repeated from above:
Structure (SMILES),target,assay,conditions,inhibition [%]
O=C(NC1CCN(c2ncnc3[nH]cnc23)CC1)c1cccc(NS(=O)(=O)c2ccc(C(F)(F)F)cc2)c1,"Genome polyprotein, NS5 methyltransferase domain (Zika virus, UniProt Q32ZE1)","NS5 enzyme activity, inhibitor",3.125 µM,3.59
